Experimental data of several laboratories.
Each line is one published result; not all experiments were run side by side. Numbers after ± are the reported error.

| SMILES | tested on | assay | test system | setting | scale | quantity | value |
| --- | --- | --- | --- | --- | --- | --- | --- |
| O=C(O)CCCOc1ccc([18F])cc1-c1cc(-c2ccccc2C(F)(F)F)n(-c2ccccc2)n1 | – | – | mouse, muscle | intravenous, dose not given, 360 min | – | tissue uptake | 2.64 ± 0.09 %ID/g |
| COc1cccc(OC)c1-c1cc(C(=O)NC2(C(=O)O)C3CC4CC(C3)CC2C4)nn1-c1ccc(C(=O)N(C)CCCN(C)CCCN(C)C(=O)[C@H](CCCCNC(=O)[C@H](CC(C)C)NC(=O)C2OC2C(=O)O)NC(=O)CN2CCN(CC(=O)[O-])CCN(CC(=O)[O-])CCN(CC(=O)[O-])CC2)cc1C(C)C.[177Lu+3] (mixture of isomers) | – | – | mouse, HT-29 xenograft, heart | 72 h post injection | – | tissue uptake | 0.18 %ID/g |
| COC1CN([C@H]2CC[C@H]([C@@]3(C)Oc4c(Cl)cc(C(=O)NCc5c(SC)cc(C)[nH]c5=O)c(C)c4O3)CC2)C1 | – | RNA-seq, refers to: SORCS2 | human, whole blood | dose not given, 24 h | baseline: pretreatment baseline | log2 fold change | 1.81 |
| COc1cccc(OC)c1-c1cc(C(=O)NC2(C(=O)O)C3CC4CC(C3)CC2C4)nn1-c1ccc(C(=O)N(C)CCOCCN(C)C(=O)[C@H](CCCCNC(=O)[C@H](CC(C)C)NC(=O)C2OC2C(=O)O)NC(=O)CN2CCN(CC(=O)[O-])CCN(CC(=O)[O-])CCN(CC(=O)[O-])CC2)cc1C(C)C.[177Lu+3] (mixture of isomers) | – | – | mouse, HT-29 xenograft, kidney | 168 h post injection | – | tissue uptake | 2.6 %ID/g |
| O=C(N/N=C/c1cc[n+](Cc2ccccc2)c2ccccc12)c1cncc(C(=O)N/N=C/c2cc[n+](Cc3ccccc3)c3ccccc23)n1 | MYC parallel G4 DNA | FRET melting | – | 1 µM, DNA 0.2 µM | – | ΔTm | 10.4 ± 0.3 °C |
| [123I]c1ccc2nc(-c3ccc(-n4ccnn4)nc3)cn2c1 | – | – | Wistar rat, brain | intravenous, 24 h | – | tissue uptake | not detected |
| O=C(NCC1OC2CCC=CCCC2O1)c1ccc([18F])nc1 (centres unmarked) | – | – | healthy female BALB/c nude mice, bone | intravenous, 7.4 MBq per mouse, 5 min | – | tissue uptake | 1.5 ± 0.6 %ID/g |
| Cc1ncsc1-c1ccc(C(C)NC(=O)C2CC(O)CN2C(=O)C(NC(=O)CCCCCCCCCCN2CCCC(Nc3ncc(Cl)c(Nc4ccccc4S(=O)(=O)C(C)C)n3)C2)C(C)(C)C)cc1 (centres unmarked) | 22Rv1 | RNA-seq, refers to: MBP | – | concentration not given | baseline: DMSO | log2 fold change | -2.25 |
| O=C(N/N=C/c1ccc(C[n+]2ccccc2)cc1)c1cccc(C(=O)N/N=C/c2ccc(C[n+]3ccccc3)cc2)c1 | hp2 hairpin duplex DNA | FRET melting | – | 1 µM | – | ΔTm | -0.2 ± 0.1 °C |
| N#C[C@@H]1CC(F)(F)CN1C(=O)CNC(=O)c1ccnc2c(NC(=O)[C@@H](N)CCCCNC(=O)CCOCCOCCOCCOCCOCCOCCNC(=O)CN3CCN(CC(=O)[O-])CCN(CC(=O)[O-])CCN(CC(=O)[O-])CC3)cccc12.[177Lu+3] | – | – | mouse, U-87 MG tumour xenograft, brain | 4 h | – | tissue uptake | 0.03 ± 0.02 %ID/g |
| CCCC[C@H](NC(=O)CNC(=O)CNC(=O)[C@H](CCCCNC(=O)[C@H](CC(=O)O)NC(=O)C(C)c1ccc(CC(C)C)cc1)NC(=O)CN1CCN(CC(=O)O)CCN(CC(=O)O)CCN(CC(=O)O)CC1)C(=O)N[C@H]1CC(=O)NCCCC[C@@H](C(N)=O)NC(=O)[C@H](Cc2c[nH]c3ccccc23)NC(=O)[C@H](CCCNC(=N)N)NC(=O)[C@@H](Cc2ccccc2)NC(=O)[C@H](Cc2c[nH]cn2)NC1=O (some centres unmarked) [lutetium-177 labelled] | – | – | C57 mouse, intestines | 2 h | – | tissue uptake | 1.96 ± 0.93 %ID |
| COc1cccc(OC)c1-c1cc(C(=O)NC2(C(=O)O)C3CC4CC(C3)CC2C4)nn1-c1ccc(C(=O)NCCNC(=O)[C@H](CCCCNC(=O)[C@H](CC(C)C)NC(=O)C2OC2C(=O)O)NC(=O)CN2CCN(CC(=O)[O-])CCN(CC(=O)[O-])CCN(CC(=O)[O-])CC2)cc1C(C)C.[177Lu+3] (mixture of isomers) | – | – | mouse, HT-29 xenograft, kidney | 168 h post injection | – | tissue uptake | 0.92 %ID/g |
| Cc1cc(C)n(CCN(CCN)CCCCCCNC(=O)[C@@H](N)Cc2c[nH]cn2)n1.[99Tc+].[C-]#[O+].[C-]#[O+].[C-]#[O+] | – | – | BALB/c nude mice, A549 xenograft, spleen | intravenous, 4 h | – | tissue uptake | 0.42 ± 0.09 %IA/g |
| N#C[C@@H]1CC(F)(F)CN1C(=O)CNC(=O)c1ccnc2c(NC(=O)[C@H](CCCCNC(=O)CCOCCOCCOCCOCCOCCOCCNC(=O)CN3CCN(CC(=O)[O-])CCN(CC(=O)[O-])CCN(CC(=O)[O-])CC3)NC(=O)CCCc3ccc(I)cc3)cccc12.[177Lu+3] | – | – | mouse, U-87 MG tumour xenograft, salivary gland | 72 h | – | tissue uptake | 0.49 ± 0.5 %ID/g |
